Results gathered from unrelated publications.
Lines come from different studies, so protocols differ. pIC50: −log10 of the molar value.

| Compound | tested on | test | system | setting | how to read | quantity | result |
| --- | --- | --- | --- | --- | --- | --- | --- |
| Cn1ncc2cc(-c3cncc(Cl)c3N3CCC4(CCNC4=O)CC3)ccc21 | LS174T | gene expression, microarray, refers to: LRRC19 mRNA |  | concentration not given, 24 h | reference: untreated cells | log2 fold change | 2.22 |
| Nc1ncc(-c2cc(-c3cnn(CC(F)(F)F)c3)ncc2F)nc1C(=O)NC1CNCC(F)C1 (stereo not shown) | PRKCQ | KINOMEscan |  | 1 µM | reference: DMSO control | remaining binding | 89% |
| CCN(CC)CC(=O)Nc1cccc(-n2cc(-c3ccc4ccc(-c5cn(-c6cccc(NC(=O)CN(CC)CC)c6)nn5)cc4c3)nn2)c1 | RCC4 | PCR angiogenesis array, refers to: CDH5 |  | 5 x IC50, 4 h, normoxia | reference: untreated | fold regulation | 1.04 |
| COC1CN([C@H]2CC[C@H]([C@@]3(C)Oc4c(Cl)cc(C(=O)NCc5c(SC)cc(C)[nH]c5=O)c(C)c4O3)CC2)C1 |  | RNA-seq, refers to: mouse F5 homolog | mouse, HT-1376 xenograft, whole blood | dose not given, PRC2 target gene | reference: vehicle | log2 fold change | 0.303 |
| CN1CCCNC(=O)c2cccc(c2)C(=O)NCCCN(C)CCCNc2cccc3c2C(=O)c2cccc(c2C3=O)NCCC1 | SAS | RNA-Seq, refers to: GOLGB1 mRNA |  | 1 µM, 6 h | reference: untreated cells | log2 fold change | -1.48 |
| C=CC(=O)Nc1cccc(Cn2ncc3cnc(Nc4cnn(CCOC)c4)nc32)c1 | CAMK1 human | binding, KINOMEscan |  | 100 nM | lower = stronger binding | percent of control | 100% |
| Cc1ncsc1-c1ccc(C(C)NC(=O)C2CC(O)CN2C(=O)C(NC(=O)CCCCCCCCCCN2CCCC(Nc3ncc(Cl)c(Nc4ccccc4S(=O)(=O)C(C)C)n3)C2)C(C)(C)C)cc1 (stereo not shown) | 22Rv1 | RNA-seq, refers to: SMARCAL1 mRNA |  | concentration not given | reference: DMSO | log2 fold change | -1.5 |
| C=C(NC(=O)c1csc(-c2nc3c(cc2O)-c2nc(cs2)C(=O)NC(C(C)O)C(=O)NC(=C(C)OC)c2nc(cs2)C(=O)NC2c4nc(cs4)C(=O)NC(COC(=O)c4c5c6c(cccc6n4O)COC(=O)C(OC4CC(C)(O)C(N(C)C)C(C)O4)C2OC5)c2nc-3cs2)n1)C(N)=O (stereo not shown) | Streptococcus pneumoniae |  | -25, immunocompromised mice, lung infection, lung | 16 mg/kg/day once daily, 24 h post-dose |  | bacterial load | 6.6 log CFU/g |
| C=CC(=O)N1[C@H](c2ccc3c(c2)OCO3)c2[nH]c3ccccc3c2C[C@@H]1C(=O)N1CCN(C)CC1 | human cyclin E1 N112C-3xFLAG:CDK2 | co-IP with TMT proteomics, refers to: DNAJA1 |  | concentration not given, P31689 | reference: wild type DMSO | relative co-enrichment | 114% |
| CNS(=O)(=O)Nc1nccc(Cc2c(C)c3ccc(Oc4ncccc4F)cc3oc2=O)c1F | NCI-H2196 | cell viability |  | 7 days |  | pIC50 | < 6.00 |

Repeated from above:
| Compound | tested on | test | system | setting | how to read | quantity | result |
| --- | --- | --- | --- | --- | --- | --- | --- |
| CN1CCCNC(=O)c2cccc(c2)C(=O)NCCCN(C)CCCNc2cccc3c2C(=O)c2cccc(c2C3=O)NCCC1 | SAS | RNA-Seq, refers to: GOLGB1 mRNA |  | 1 µM, 6 h | reference: untreated cells | log2 fold change | -1.48 |
